Experimental data gathered from unrelated publications.
A part holds a random share of what one study measured.

Sample 1
Target: Histone acetyltransferase KAT6A, winged helix 1, GST fusion (KAT6A, Homo sapiens, UniProt Q92794, residues 1-85)
Technique: protein binding microarray
Form: double-stranded DNA, one strand shown
Sample: in vitro
Tested at: not given
Notes: 8-mer, flanks averaged, mean of 2 arrays, mostly near background
Reference: not given
Direction: higher = stronger binding
Target sequence (chain): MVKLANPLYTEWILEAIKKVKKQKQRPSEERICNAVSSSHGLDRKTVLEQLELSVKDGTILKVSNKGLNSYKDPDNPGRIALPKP
| Strand | E-score |
| --- | --- |
| AATCCAAT | -0.135 |
| CGATATCG | 0.108 |
| TCCTTCCA | -0.209 |
| ATATCTAC | 0.00341 |
| CCGCCGCG | 0.472 |
| CCACGATA | -0.28 |
| CATACTAA | -0.0901 |
| AGCTCTAA | -0.129 |
| AAGAAGTC | -0.118 |
| TACTGAGA | -0.0522 |
| ATGATCGG | 0.0499 |
| AAAACCTT | -0.12 |
| AACGGCAA | 0.191 |
| AATGGCTG | -0.222 |
| CTTGTCTA | -0.0421 |
| ACCACTTA | -0.0954 |
| GAGGCGAA | -0.0304 |
| GAGACGTA | -0.133 |
| GCATGTAA | 0.179 |
| CAAGCGTC | 0.227 |
| ATTCCCCA | -0.234 |

Sample 2
Target: Interferon regulatory factor 5, full length, phosphomimetic (IRF5, Homo sapiens, UniProt Q13568-2, residues 1-514, K96S/S451D/S453D/S456D/S462D)
Technique: protein-binding microarray
Form: double-stranded DNA, one strand shown
Sample: in vitro
Tested at: 250 nM
Notes: 60-bp whole probe
Added: salmon DNA 0.4 mg/ml
Reference: random background probes
Direction: higher = stronger binding
All sequences stand within: GCCTAGCAC … GTCTTGATTCGCTTGACGCTGCTG
| Strand | log fluorescence |
| --- | --- |
| TTAGATTTCGGGTTTCGATTTGTGCTA | 8.07 z-score |
| TCAGGTTTCGGACTGGGTTAGTGCTAG | 4.83 z-score |
| TTAGGTATCCCTATCCTTTAGTGCTAG | 0.0705 z-score |
| TTACGTATCCTTTTCCTTTAGTGCTAG | 1.58 z-score |
| GACGGTTTCCTTCTCCTGGCGTGCTAG | 1.01 z-score |
| TTAGGTATCCCTCTCCTTTAGTGCTAG | -0.0665 z-score |
| GACGGTATCGGGACTGAGGACGTGCTA | 1.05 z-score |
| TTGATTGTGGCTTTTTAATGGTGCTAG | -0.142 z-score |
| GGGTGTGTGAGTGTGTGTGCGTGCTAG | -0.743 z-score |
| GACGGATTCGGGTTTCGGGACGTGCTA | 2.1 z-score |
| GACGGTTTCCTTATCCGGACGTGCTAG | 0.94 z-score |
| TTTCGTTACTTCCTCAAACAGTGCTAG | 10.5 z-score |
| GACGGTCTCGATATCGGGACGTGCTAG | 0.753 z-score |
| TCAGTTTTGAGCTCTGTCTGGGTGCTA | 0.476 z-score |
| TTAGGACTGGGTCTCGGTTAGTGCTAG | 0.0145 z-score |
| GATAATTTATAAATAAAAAAGTGCTAG | 0.855 z-score |
| GAGGGTTTCGGTTCCGGGACGTGCTAG | 8.62 z-score |
| TTAGATATCCGTCTCGATTAGTGCTAG | 0.701 z-score |
| TCAGTTTTGAGTTTTCCACTGTGCTAG | 0.746 z-score |
| TCACATCTTCCTCTGCCACTGTGCTAG | 0.561 z-score |

Sample 3
Target: RNA binding protein fox-1 homolog 2, RRM domain, GST-SBP tag (RBFOX2, Homo sapiens, UniProt O43251-10, residues 100-194)
Technique: RNA Bind-n-Seq
Form: RNA
Sample: in vitro
Tested at: 365 nM
Notes: natural RNA segment, single round, ends assumed
Reference: no-protein control
Direction: higher = stronger binding
All sequences stand within: GGGAGUUCUACAGUCCGACGAUC … UGGAAUUCUCGGGUGCCAA
Construct (chain): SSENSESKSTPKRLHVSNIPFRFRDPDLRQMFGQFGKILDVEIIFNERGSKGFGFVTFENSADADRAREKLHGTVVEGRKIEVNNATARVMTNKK
| Strand | RBNS enrichment (R) |
| --- | --- |
| GGAUAAUUUUUUUAAUGCACUUGUAUGUGAAGACAGUUUGUAUGACAUAAUACAAAACUUUUAAACACUUGGGCUUUCCUUUGCUUCCCUAUCAGUGGGUAGAGUUUUUG | 0.501 |
| AACCCUGCAGGCCUCAUCUUUCCCAAAACCCACUUUGUCUUGGUGGGAGUGGGUCCGCGCUGCUCUGCAGCAGGGGCUGGGGAGUGGACAGCAUCAGGUGGGAAAGUGGA | 0.493 |
| AGCCAAUGAUGGAGCCACAUGAAUGGCCCUGGAGCUGUGUGCCUUGUUCCUGUGGCCAGGAGUUUGGUGACUGAAUCAUUUAUGGGCUCCUUUAAUGGGCCCAUAAAAGC | 0.91 |
| GAACCUAUUGAAAGGAAUUUGUUGUCACCUUCUUAACUAGAAUAGUUGUUGAAGGUACCGCUUAAGCCAUUUUUUUCUUAACAUCGGUGGCUCAGUUAAGGAAUGAGAAG | 0.296 |
| ACUUUGUGAAUGCACCAUUUUGAUGAUCAUGAAACGCUGAUGAAAAAUGCCUCCAAACAUUUUUCUGUACUCAUACUUAGAUUCACAAUGGUUGUGUAUCUCUAUAAUGU | 0.402 |
| AAAUAUGAUGCUGGCAUGGCAAUCAGACCAAAGCACUGUCCCCAAUUGUUGUCUUAACUAUGACUAGACAUGUUAUACAGCCAUUUAUCUUGUACAACUGAGAAGAAUCA | 1.28 |
| GUGAAAUGCUUAGCUGGUUAGCAUCCGAGGUGAGGGUCUGAAGGAGUCUCUCUGUCUUCUUCUUUCUUUGCCUGAUGCACAUCAAGGUAGAGUGCAUUCCGGUGUGGGUG | 0.391 |
| AAACAUAUAUACAUAUCUAUACAUAUCUUUUGAAGUGUUGAAAGGAAUAGUACUUUAUAUUCUUUAUCAUACCACUUUUGUAAGUGUUGAAUAUAUUGCUGUUUAUUUUU | 0.518 |
| AGGGCUGGCUUCGCCCGCGUUCUCGUCGUCGGAUCAAGGAGCGCGGCGGCGUUUUGGACCCGCGCUCCCAUCCCCCACCUUCCCGGGCCGGGGACCCACUCUGCCCAGCC | 0.31 |
| CUGUUUUUCUAACUGAAAAGCUAAGGGCUUGAUUCCUAGCCCCGUUCUGUGGGGCACUGGGUGAUACUCAGUUUCUUGUUCCUGGCCGUGGAGAGGGGCCUGGGGCACUG | 0.521 |
| AGGUGUGAUCUACCACUGCCGGGCCCUCAUGUUGCGUUGUGUUCUUAAGUUGAGGAAGAACUGUCUCCUCUUCCACCUUUCUACAGAAUGCCUCUUCUUUACCUCCCGCC | 0.37 |
| UAUUGACCGAGUAUUGUUGAGUAUUGCUAGAGUAGCUAGUUAUCUGGUGAGACUGCUAAUUGAUUCAGUGUAUGAUAGUUCACACGGGAUGAGAACCUUGGCCUUUAUCA | 6.48 |

Sample 4
Target: Sal-like protein 4, full length isoform B (SALL4, Homo sapiens, UniProt Q9UJQ4-2, residues 1-616)
Technique: universal PBM
Form: double-stranded DNA, one strand shown
Sample: in vitro
Tested at: not given
Notes: 8-mer, flanks averaged, mean of replicates
Direction: higher = stronger binding
| Strand | E-score |
| --- | --- |
| CAGGGGAA | -0.252 |
| CTAGCCAC | -0.203 |
| TCGACGCA | -0.161 |
| AGCATAAC | 0.19 |
| ATACGGAG | 0.0346 |
| ATGCGGGA | 0.0202 |
| CAAGCATG | 0.0711 |
| AACTTTCT | 0.177 |
| TCGGGAAA | -0.0591 |
| CAGAAATC | 0.122 |
| TCCGTGCA | -0.0768 |
| CGCTCCGA | -0.211 |
| GCGGTGGA | -0.236 |
| ACTCTCCC | -0.173 |
| CGCATGTA | 0.0507 |
| ATACTAGA | 0.248 |
| AGGTCATG | -0.116 |

Sample 5
Target: Max-binding protein MNT, bHLH-zipper, MAX partner unstated (MNT, Homo sapiens, UniProt Q99583, residues 220-300)
Technique: protein-binding microarray
Form: double-stranded DNA, one strand shown
Sample: in vitro
Tested at: not given
Notes: k-mer, scored over probes, only values ≥0.25
Direction: higher = stronger binding
Residues (chain): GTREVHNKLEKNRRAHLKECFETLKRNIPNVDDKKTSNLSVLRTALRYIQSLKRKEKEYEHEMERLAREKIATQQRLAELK
| Strand | E-score |
| --- | --- |
| GACATGCA | 0.258 |
| CACGGGGG | 0.384 |
| ACTGCATG | 0.311 |
| CACATGAC | 0.447 |
| AACGTGGC | 0.426 |
| CGCATGAA | 0.28 |
| ACCTCCAT | 0.276 |
| CGTTGTCC | 0.275 |
| CACGTGTC | 0.496 |
| ACATGTGG | 0.474 |
| CCATGCAC | 0.354 |
| ATGTGCAG | 0.287 |
| AGTGCGTG | 0.273 |
| CAGGTGCA | 0.268 |
| ACGTGAAT | 0.326 |
| AGAGCATG | 0.383 |
| ATGCGCGA | 0.269 |
| GTGGGGAA | 0.3 |
| AGTATGGC | 0.279 |
| ACATGAGT | 0.299 |
| AAGGCGTG | 0.31 |
| AACGTGAG | 0.321 |
| AGCGTGAG | 0.274 |
| ACATGACA | 0.33 |
| AAAACACG | 0.313 |

For quick reference, copied from above (sample 2):
| Strand | log fluorescence |
| --- | --- |
| TTAGGACTGGGTCTCGGTTAGTGCTAG | 0.0145 z-score |
| TCAGGTTTCGGACTGGGTTAGTGCTAG | 4.83 z-score |
| TTGATTGTGGCTTTTTAATGGTGCTAG | -0.142 z-score |
| TCAGTTTTGAGTTTTCCACTGTGCTAG | 0.746 z-score |
| GACGGTTTCCTTATCCGGACGTGCTAG | 0.94 z-score |
| GACGGATTCGGGTTTCGGGACGTGCTA | 2.1 z-score |
| GACGGTTTCCTTCTCCTGGCGTGCTAG | 1.01 z-score |
| TCAGTTTTGAGCTCTGTCTGGGTGCTA | 0.476 z-score |
| GACGGTATCGGGACTGAGGACGTGCTA | 1.05 z-score |
| GAGGGTTTCGGTTCCGGGACGTGCTAG | 8.62 z-score |
| TCACATCTTCCTCTGCCACTGTGCTAG | 0.561 z-score |
| TTAGGTATCCCTCTCCTTTAGTGCTAG | -0.0665 z-score |
| TTTCGTTACTTCCTCAAACAGTGCTAG | 10.5 z-score |
| GGGTGTGTGAGTGTGTGTGCGTGCTAG | -0.743 z-score |
| GATAATTTATAAATAAAAAAGTGCTAG | 0.855 z-score |
